Experimental data gathered from unrelated publications.
Compare with care: the assays were run in different laboratories. ± gives the spread as reported. Converted amounts (≈) assume the structure as drawn.

SMILES	test	test system	conditions	scale	measurement	value
O=C([O-])C[N+]12CC(=O)[O][Re-2]1[O]P(=O)([O-])C2.[C-]#[O+].[C-]#[O+].[C-]#[O+] (centres unmarked)	HPLC	aqueous solution	1 d, pH 3, room temperature	–	isomer fraction at equilibrium	10%
O=C(CN1CCN(c2cc3c(cc2F)c(=O)c(C(=O)O)cn3C2CC2)CC1)Nc1ccc(Cl)cc1	–	–	–	relative to: DMSO over water	solubility ratio	> 1000 fold
CC(=CCC(O)C(C)=Cc1csc(C)n1)CC=CC(C)C(O)C(C)C(=O)C(C)(C)C(O)CC(=O)O (centres unmarked)	–	human, plasma	intravenous infusion, 36 mg/m2 KOS-1584, 3 h infusion, cycle 1	relative to: metabolite over KOS-1584	AUC ratio	9.76 ± 6.76%
[2H]C([2H])([2H])C([2H])([2H])C([2H])([2H])OC(C(=O)OC1CCNCC1)(c1ccccc1)c1ccccc1	–	male human, plasma	oral, 10 mg, multiple doses	–	half-life	60.8 h
COC(=O)C[C@](O)(CCCC(C)(C)OC(C)=O)C(=O)O[C@@H]1C(OC)=C[C@]23CCCN2CCc2cc4c(cc2[C@H]13)OCO4	–	CD1 mouse, large intestine	subcutaneous, 1 mg/kg, 24 h, below quantification limit 1.00 ng/mL	–	tissue concentration	not detected
CSCC[C@H](NC(=O)CNC(=O)[C@H](CC(=O)O)NC(=O)[C@@H](NC(=O)[C@@H](NC(=O)[C@@H](NC(=O)CNC(=O)[C@H](CCC(N)=O)NC(=O)[C@H](CCSC)NC(=O)[C@H](CC(=O)O)NC(=O)[C@H](C)NC(=O)[C@H](C)NC(=O)[C@@H](NC(=O)[C@H](CO)NC(=O)[C@@H](N)CC(C)C)[C@@H](C)O)C(C)C)C(C)C)[C@@H](C)O)C(=O)N[C@@H](C)C(=O)N[C@@H](CO)C(=O)NCC(=O)N[C@@H](CC(C)C)C(=O)N[C@@H](CC(=O)O)C(=O)N[C@@H](CCCCN)C(=O)N[C@@H](CC(=O)O)C(=O)N[C@@H](Cc1ccc(O)cc1)C(=O)N[C@@H](CC(C)C)C(=O)N[C@@H](CCCCN)C(=O)N1CCC[C@H]1C(=O)N[C@@H](CC(=O)O)C(=O)N[C@@H](CC(=O)O)C(=O)O	–	human, serum	intravenous, patients, infusion	–	half-life	0.09 h
CC(C)C[C@@H](NC(=O)[C@@H](C)NC(=O)[C@@H](CC(C)C)NC(=O)[C@@H](CCCCN)NC(=O)[C@@H](CCCCN)NC(=O)[C@@H](CC(C)C)NC(=O)[C@@H](C)NC(=O)[C@H]1CCCN1C(=O)[C@@H](CC(C)C)NC(=O)[C@@H](Cc1c[nH]c2ccccc12)NC(=O)[C@@H](CCCCN)NC(=O)[C@@H](CCCCN)NC(=O)[C@@H](CC(C)C)NC(=O)[C@@H](C)NC(=O)[C@@H](CC(C)C)NC(=O)[C@@H](CC(C)C)NC(=O)[C@@H](C)NC(=O)[C@@H](CC(C)C)NC(=O)[C@@H](CCCCN)NC(=O)[C@H](N)CCCCN)C(=O)N[C@H](CC(C)C)C(=O)N[C@H](C)C(=O)N[C@H](CC(C)C)C(=O)N[C@H](CCCCN)C(=O)N[C@H](CCCCN)C(N)=O	haemolysis	human erythrocytes	30 min, pH 7.4, 37 °C	–	HC50	11.66 ± 0.03 µM
C[S]1CC[S]2CC[P](CO)(CO)[99Tc+]12.[C-]#[O+].[C-]#[O+].[C-]#[O+]	–	CF-1 mouse	intravenous, 1 h	–	uptake in small intestine	23.3 %ID
O=C(c1ccc(F)cc1)C1CCN(C2Cc3c(cccc3OCC[18F])CC2O)CC1 (single isomer, unassigned; (-))	–	Sprague-Dawley rat male, brain stem	intravenous, 5 min	–	brain uptake	0.683 %ID/g
COc1ccc(C)cc1NC(=O)OC1CC2CCCC(C1)N2Cc1ccc(CC[18F])cc1 (centres unmarked)	–	mouse, fat	5 min, tumour-bearing	–	tracer uptake	2.33 %ID/g
N=C(N)NCc1ccc(C(=O)NCCCC[C@H](NC(=O)N[C@@H](CCC(=O)O)C(=O)O)C(=O)O)cc1[211At]	–	SCID mouse, PC-3 xenografts, stomach	1 h	–	tissue uptake	2.01 ± 0.41 %ID/g
CN[C@](C)(C[18F])C(=O)O	–	mouse, pancreas	1 h, tumour-bearing	–	tracer uptake	32 %ID/g
CC[C@H](C)CCCCC(=O)N[C@@H](CCN)C(=O)N[C@H](C(=O)N[C@@H](CCN)C(=O)N[C@H]1CCNC(=O)[C@H]([C@@H](C)O)NC(=O)[C@H](CCN)NC(=O)[C@H](CCN)NC(=O)[C@H](CC(C)C)NC(=O)[C@@H](Cc2ccccc2)NC(=O)[C@H](CCN)NC1=O)[C@@H](C)O	ELISA	male CD-1 mouse, urine	subcutaneous, 12.5 mg/kg, 4 doses every 8 h, 24 h urine collection, nephrotoxicity	–	urinary cystatin C excretion	591 ng/24 h
O=c1cc(-c2ccccc2)oc2c(Br)c(O)c(O)c(O)c12	–	C57BL/6 mouse, plasma	oral, 50 mg/kg, single dose	–	AUC(0-inf)	1.11 µg·h/mL
C/C=C/C=C/C/C=C/CCCCCCCc1cccc(O)c1O	–	Wistar rat, male, plasma	intravenous, 20 mg/kg	–	AUMC	75.1 ± 4.01 mg·h²/L
[11CH3]Sc1ccc(C(=O)C2CCN(C3Cc4ccccc4CC3O)CC2)cc1 (single isomer, unassigned; (-))	PET imaging	cynomolgus monkey, striatum	–	–	maximum uptake	5160 nCi/cc
CC(C)[C@H]1NC(=O)C[C@H]2/C=C/CCSSC[C@@H](NC1=O)C(=O)N[C@H](Cc1cccc3ccccc13)C(=O)NCC(=O)O2	–	nude mouse, blood	intraperitoneal, 4 mg/kg	–	AUC	0.015 µg·h/mL
CC(C)[C@H](NC(=O)CNC(=O)[C@H](CCC(N)=O)NC(=O)[C@H](C)N)C(=O)O	–	human	single dose, 3 mg/kg	–	possibly related adverse events	0%
CC[C@H](C)[C@H](NC(=O)[C@H](CCCCN)NC(=O)[C@H](Cc1ccccc1)NC(=O)[C@H]1CCC[C@@H]1NC(=O)CN)C(=O)N[C@@H](C)CC(=O)N[C@@H](CCCCN)C(=O)N[C@@H](CCCCN)C(=O)N[C@H]1CCC[C@@H]1C(=O)N[C@H](C(=O)N[C@@H](CCCCN)C(=O)N[C@@H](CO)C(=O)N[C@H](CC(N)=O)Cc1ccccc1)C(C)C	circular dichroism	trifluoroethanol in water	–	relative to: 15% TFE over 100% TFE	helical rigidity	25 ± 3%
CC(C)C[C@H](NC(=O)[C@H](CCCCN)NC(=O)[C@H](CCC(=O)O)NC(=O)[C@H](C)NC(=O)[C@@H](NC(=O)[C@H](CCCCN)NC(=O)[C@H](CC(=O)O)NC(=O)[C@H](Cc1ccc(O)cc1)NC(=O)[C@H](Cc1ccccc1)NC(=O)[C@H](C)NC(=O)[C@H](CCCCN)NC(=O)[C@H](CC(C)C)NC(=O)[C@H](Cc1c[nH]c2ccccc12)NC(=O)[C@@H](N)CC(=O)O)C(C)C)C(=O)N[C@@H](CCCCN)C(=O)N[C@@H](CCC(=O)O)C(=O)N[C@@H](C)C(=O)N[C@@H](Cc1ccccc1)C(=O)N1CCC[C@H]1C(=O)N[C@@H](CC(=O)O)C(=O)N[C@@H](Cc1c[nH]c2ccccc12)C(=O)N[C@@H](C)C(=O)N[C@@H](CCCCN)C(=O)N[C@@H](C)C(=O)N[C@@H](C)C(=O)N[C@@H](Cc1ccc(O)cc1)C(=O)N[C@@H](CC(=O)O)C(=O)N[C@@H](CCCCN)C(=O)N[C@@H](C)C(=O)N[C@@H](C)C(=O)N[C@@H](CCC(=O)O)C(=O)N[C@@H](CCCCN)C(=O)N[C@@H](C)C(=O)N[C@@H](CCCCN)C(=O)N[C@@H](CCC(=O)O)C(=O)N[C@@H](C)C(=O)N[C@@H](C)C(=O)O	–	cynomolgus monkey female, plasma	intravenous infusion, 75 mg/kg every other day, day 27	–	AUC(0-last)	7100 µg·h/mL
NC(=O)[C@@H](Cc1ccccc1)N[11C](=O)OCc1ccccc1	binding, dynamic PET	Wistar rat, male, brain	intravenous, 3 min, together with: self-blocking, 3 µmol/kg unlabelled analogue, 3 min before	–	SUV max	1.7
CCc1c2c(nc3ccc(OC4OC(C(=O)O)C(O)C(O)C4O)cc13)-c1cc3c(c(=O)n1C2)COC(=O)C3(O)CC (centres unmarked)	–	human patients, plasma	intravenous, 56 mg/m^2 of parent drug	–	Tmax	6.58 h
CSCC[C@@H]1NC(=O)[C@@H]2CSSC[C@H](NC(=O)[C@H](CO)NC(=O)[C@H](C)N)C(=O)N[C@@H](CCCNC(=N)N)C(=O)N[C@@H]([C@@H](C)O)C(=O)N3CCC[C@H]3C(=O)N[C@@H](CCCCN)C(=O)N[C@@H](CC(=O)O)C(=O)N[C@H]3CSSC[C@H](NC(=O)[C@H](CCCCN)NC(=O)[C@H](CCCNC(=N)N)NC(=O)[C@H](CC(N)=O)NC1=O)C(=O)N[C@@H](CCCCN)C(=O)N[C@H]1CSSC[C@H](NC(=O)[C@@H]4CCCN4C(=O)[C@H](CC(=O)O)NC(=O)[C@H](C)NC3=O)C(=O)N[C@@H](C)C(=O)N[C@@H](CCCCN)C(=O)N[C@@H](CCC(=O)O)C(=O)N[C@@H]([C@@H](C)O)C(=O)NCC(=O)N[C@@H](CSSC[C@@H](C(N)=O)NC(=O)[C@H](CCCNC(=N)N)NC(=O)[C@H](CC(N)=O)NC1=O)C(=O)N1CCC[C@H]1C(=O)N[C@@H](Cc1ccc(O)cc1)C(=O)NCC(=O)N[C@@H](CCCCN)C(=O)N2	–	DA rat, pristane-induced arthritis, serum	subcutaneous, 0.1 mg/kg every other day, end of 21-day trial	–	gamma-glutamyl transferase	1.5 U/L
CN(C)C(CNC(=O)Nc1cc(C(F)(F)F)ccc1N1CCOCC1)c1ccncc1 (centres unmarked)	–	mouse, serum	intraperitoneal, 180 mg/kg single dose	–	serum sodium	145 mmol/L
CCCC[C@H](NC(=O)CN1CCC(NC(=O)CN2CCC(NC(=O)CN3CCN(CC(=O)O)CCN(CC(=O)O)CCN(CC(=O)O)CC3)CC2)CC1)C(=O)N[C@H]1CC(=O)NCCCC[C@@H](C(N)=O)NC(=O)[C@H](Cc2c[nH]c3ccccc23)NC(=O)[C@H](CCCNC(=N)N)NC(=O)[C@@H](Cc2ccccc2)NC(=O)[C@H](Cc2c[nH]cn2)NC1=O [gallium-68 labelled]	biodistribution	C57BL/6J mouse male tumour-bearing	1 h post injection, unblocked	relative to: tumour over blood	tumour to blood ratio	13.6 ± 3.1
O=c1c2ccccc2[se]n1CCCn1[se]c2ccccc2c1=O	–	1% Soluplus in water	24 h, 25 °C, 10 mg/mL	–	solubility	115 ± 7 µg/mL (≈ 264 µM)
CC(C)C[C@H](NC(=O)[C@H](Cc1ccccc1)NC(=O)CNC(=O)C/C=C(\F)[C@@H](N)Cc1ccc(O)cc1)C(=O)O	–	BALB/c mice, plasma	intravenous, 50 mg/kg	–	duration of detectable level	2 h
CC[C@H](C)C(=O)N1CCC(NC(=O)Nc2ccc(OC(F)(F)F)c(F)c2)CC1	–	healthy volunteers	oral, 0.5 mg single dose	–	subjects with trichomoniasis TEAE	0%
CCCCCCCCCCCCC(=O)O.O=C1CCCC2C3CCCN4CCCC(CN12)C34 (centres unmarked)	electrical conductivity	water	303.15 K, critical micelle concentration	–	standard Gibbs energy of micellization	-8.41 kcal/mol

Repeated from above:
SMILES	test	test system	conditions	scale	measurement	value
CC(=CCC(O)C(C)=Cc1csc(C)n1)CC=CC(C)C(O)C(C)C(=O)C(C)(C)C(O)CC(=O)O (centres unmarked)	–	human, plasma	intravenous infusion, 36 mg/m2 KOS-1584, 3 h infusion, cycle 1	relative to: metabolite over KOS-1584	AUC ratio	9.76 ± 6.76%
[2H]C([2H])([2H])C([2H])([2H])C([2H])([2H])OC(C(=O)OC1CCNCC1)(c1ccccc1)c1ccccc1	–	male human, plasma	oral, 10 mg, multiple doses	–	half-life	60.8 h
